Assay results pooled from the literature.
Compare with care: the assays were run in different laboratories. Numbers after ± are the reported error.

CC[C@H](C)[C@H](NC(=O)[C@H](Cc1ccccc1)NC(=O)[C@H](CCC(=O)O)NC(=O)[C@H](CCCNC(=N)N)NC(=O)[C@H](C)NC(=O)[C@H](C)NC(=O)[C@H](CCC(N)=O)NC(=O)[C@H](CCC(=O)O)NC(=O)[C@H](CCC(=O)O)NC(=O)[C@H](CC(C)C)NC(=O)[C@H](Cc1ccc(O)cc1)NC(=O)[C@H](CO)NC(=O)[C@H](CO)NC(=O)[C@@H](NC(=O)[C@H](CC(=O)O)NC(=O)[C@H](CO)NC(=O)[C@@H](NC(=O)[C@H](Cc1ccccc1)NC(=O)[C@@H](NC(=O)CNC(=O)[C@H](CCC(=O)O)NC(=O)[C@H](C)NC(=O)CCc1cnc[nH]1)[C@@H](C)O)[C@@H](C)O)C(C)C)C(=O)N[C@@H](C)C(=O)N[C@@H](Cc1c[nH]c2ccccc12)C(=O)N[C@@H](CC(C)C)C(=O)N[C@H](C(=O)N[C@@H](CCCNC(=N)N)C(=O)NCC(=O)N[C@@H](CCCNC(=N)N)C(=O)N[C@@H](CCCCNC(=O)COCCOCCNC(=O)COCCOCCNC(=O)CC[C@H](NC(=O)CCCCCCCCCCCCCCCCC(=O)O)C(=O)O)C(=O)NCC(=O)NCC(=O)N[C@@H](CO)C(=O)N[C@@H](CCCCNC(=O)[C@H](CCCCNC(=O)[C@H](CCCCNc1c(NCCCCCN(O)C(=O)CCC(=O)NCCCCCN(O)C(=O)CCC(=O)NCCCCCN(O)C(C)=O)c(=O)c1=O)Nc1c(NCCCCCN(O)C(=O)CCC(=O)NCCCCCN(O)C(=O)CCC(=O)NCCCCCN(O)C(C)=O)c(=O)c1=O)NC(=O)[C@H](CCCCNc1c(NCCCCCN(O)C(=O)CCC(=O)NCCCCCN(O)C(=O)CCC(=O)NCCCCCN(O)C(C)=O)c(=O)c1=O)Nc1c(NCCCCCN(O)C(=O)CCC(=O)NCCCCCN(O)C(=O)CCC(=O)NCCCCCN(O)C(C)=O)c(=O)c1=O)C(=O)O)C(C)C [zirconium-89 labelled] — tissue uptake (ex vivo gamma counting; male Sprague-Dawley rats, kidney; intravenous, 1 nmol, 24 h): 16.9 %ID/g
CCc1nc(C(N)=O)c(Nc2ccc(N3CCC(N4CCN(C)CC4)CC3)c(OC)c2)nc1NC1CCOCC1 — Cmin (patients, plasma; oral, 120 mg once daily, cycle 1 day 15, median): 227 ng/mL
O=C1Nc2cc3[nH]nc(-c4ccncc4)c3cc2CN1Cc1ccccc1 — patients with ≥1 TEAE (CTCAE v4.03; advanced solid tumour patients; intravenous, 4.8 mg/kg): 100%
COc1cc2c(Oc3ccc4[nH]c(C)cc4c3F)ccnc2cc1OCC1(N)CC1 — grade 1 or 2 Cholesterol elevation (paediatric recurrent refractory sarcoma; concentration not given, whole group): 20.6%
O=S(=O)(Nc1ccccc1)c1ccc(NC(=S)Nc2ccccc2)cc1 — serum enzyme activity (refers to: ALT; female mouse, blood; oral, 5 mg/kg daily, 14 days): 72 U/L
C[C@@H](c1nc(-c2ccc(C#N)cc2)cs1)[C@](O)(Cn1cncn1)c1cc(F)ccc1F — subjects with TEAEs (refers to: investigations (SOC); humans; oral, dose not given, added: midazolam): 8.7%
C[C@]1(CO)Cc2ncn(-c3ccc(C#N)c(Cl)c3)c2C(=O)O1 — drug-related Somnolence incidence (healthy humans; concentration not given, multiple dose part total): 2.2%
COc1ccc(-c2c(-c3ccc(C#N)c(F)c3)nc(N3CCC(N)CC3)n(C)c2=O)cc1F — treatment-related adverse event incidence (refers to: Diarrhea; human patients; oral, dose not given, any grade, dose escalation, NG): 2%
COc1ncnn2ccc(-c3cnc4nc(C)n(Cc5nnc([C@@H](C)F)o5)c4c3)c12 — patients with decreased WBC count (phase 1 trial; human patients; oral, dose not given, CTCAE grade 4): 7.1%
O=c1nc(NO)ccn1[C@@H]1O[C@H](CO)[C@@H](O)[C@H]1O — autosampler stability (rat fetus dialysate; 25 ng/mL, 6 h, 10 °C, low QC concentration, added: molnupiravir): 94.2 ± 1.45%
C[C@@H]1OC(=O)NN=C1c1ccc(-c2ccc(F)cc2)c(C(F)(F)F)c1 — patients with adverse event (phase I trial, refers to: muscle spasms all grades; human patients; 10 mg loading then 0.5 mg daily): 100%
CCc1ccc(CC/C=C/c2ccc3c(c2)C(=O)CC3)cc1 — Phosphorus (Sprague-Dawley rat, male; oral, 30 mg/kg/day, 14 days): 2.86 mM
CN1CC[C@@H](c2c(O)cc(O)c3c(=O)cc(-c4ccc(C(F)(F)F)cc4Cl)oc23)[C@@H]1CO — patients with adverse event (refers to: Pyrexia; AML; oral, 100 mg, intermittent dosing): 66.7%

A few entries again:
CN1CC[C@@H](c2c(O)cc(O)c3c(=O)cc(-c4ccc(C(F)(F)F)cc4Cl)oc23)[C@@H]1CO — patients with adverse event (refers to: Pyrexia; AML; oral, 100 mg, intermittent dosing): 66.7%
